Published values from different studies.
Every numbered part comes from another study and shows a few of its results, in no order. “And” joins repeats or separate records; there may be more than shown.
UniProt Q9H3Y6, sequence (whole entry, looked up): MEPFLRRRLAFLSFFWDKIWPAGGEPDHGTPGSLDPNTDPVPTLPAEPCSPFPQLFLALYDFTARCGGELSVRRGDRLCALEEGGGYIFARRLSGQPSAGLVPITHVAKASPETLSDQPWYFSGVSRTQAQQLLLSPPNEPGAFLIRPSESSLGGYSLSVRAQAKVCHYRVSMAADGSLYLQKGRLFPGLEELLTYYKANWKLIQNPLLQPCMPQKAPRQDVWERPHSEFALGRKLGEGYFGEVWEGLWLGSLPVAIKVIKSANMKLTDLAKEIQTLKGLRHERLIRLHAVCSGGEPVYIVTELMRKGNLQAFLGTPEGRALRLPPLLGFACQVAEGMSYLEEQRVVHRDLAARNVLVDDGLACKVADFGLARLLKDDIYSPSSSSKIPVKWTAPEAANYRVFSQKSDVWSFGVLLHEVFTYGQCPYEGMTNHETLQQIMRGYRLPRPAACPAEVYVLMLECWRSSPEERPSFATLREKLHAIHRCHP
UniProt P54760, sequence (whole entry, looked up): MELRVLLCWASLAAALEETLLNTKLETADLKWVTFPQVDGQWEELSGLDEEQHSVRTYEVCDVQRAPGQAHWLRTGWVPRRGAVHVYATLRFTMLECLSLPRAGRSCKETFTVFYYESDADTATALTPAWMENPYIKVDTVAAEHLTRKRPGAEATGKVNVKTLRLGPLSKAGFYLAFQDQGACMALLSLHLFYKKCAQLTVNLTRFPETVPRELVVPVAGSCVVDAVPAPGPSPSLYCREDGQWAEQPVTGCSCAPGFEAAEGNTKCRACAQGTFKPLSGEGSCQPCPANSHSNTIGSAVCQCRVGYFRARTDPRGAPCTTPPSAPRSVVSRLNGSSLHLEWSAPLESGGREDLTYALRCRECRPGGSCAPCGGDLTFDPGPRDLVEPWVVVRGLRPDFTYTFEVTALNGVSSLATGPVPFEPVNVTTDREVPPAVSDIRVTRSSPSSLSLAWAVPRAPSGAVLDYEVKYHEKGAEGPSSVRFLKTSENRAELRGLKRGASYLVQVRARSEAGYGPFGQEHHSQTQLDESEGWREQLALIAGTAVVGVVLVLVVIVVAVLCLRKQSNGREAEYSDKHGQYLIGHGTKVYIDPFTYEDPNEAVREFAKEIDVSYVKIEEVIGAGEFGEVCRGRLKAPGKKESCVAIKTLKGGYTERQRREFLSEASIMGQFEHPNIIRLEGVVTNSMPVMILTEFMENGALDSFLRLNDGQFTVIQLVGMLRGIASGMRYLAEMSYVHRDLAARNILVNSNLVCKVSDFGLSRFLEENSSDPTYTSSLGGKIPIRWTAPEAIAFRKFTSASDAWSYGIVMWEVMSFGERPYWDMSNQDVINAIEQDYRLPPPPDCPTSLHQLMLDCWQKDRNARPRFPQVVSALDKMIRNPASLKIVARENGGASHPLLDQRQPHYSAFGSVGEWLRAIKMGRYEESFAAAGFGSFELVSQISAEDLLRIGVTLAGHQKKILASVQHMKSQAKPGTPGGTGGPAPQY
UniProt Q9Y2H9, sequence (whole entry, looked up): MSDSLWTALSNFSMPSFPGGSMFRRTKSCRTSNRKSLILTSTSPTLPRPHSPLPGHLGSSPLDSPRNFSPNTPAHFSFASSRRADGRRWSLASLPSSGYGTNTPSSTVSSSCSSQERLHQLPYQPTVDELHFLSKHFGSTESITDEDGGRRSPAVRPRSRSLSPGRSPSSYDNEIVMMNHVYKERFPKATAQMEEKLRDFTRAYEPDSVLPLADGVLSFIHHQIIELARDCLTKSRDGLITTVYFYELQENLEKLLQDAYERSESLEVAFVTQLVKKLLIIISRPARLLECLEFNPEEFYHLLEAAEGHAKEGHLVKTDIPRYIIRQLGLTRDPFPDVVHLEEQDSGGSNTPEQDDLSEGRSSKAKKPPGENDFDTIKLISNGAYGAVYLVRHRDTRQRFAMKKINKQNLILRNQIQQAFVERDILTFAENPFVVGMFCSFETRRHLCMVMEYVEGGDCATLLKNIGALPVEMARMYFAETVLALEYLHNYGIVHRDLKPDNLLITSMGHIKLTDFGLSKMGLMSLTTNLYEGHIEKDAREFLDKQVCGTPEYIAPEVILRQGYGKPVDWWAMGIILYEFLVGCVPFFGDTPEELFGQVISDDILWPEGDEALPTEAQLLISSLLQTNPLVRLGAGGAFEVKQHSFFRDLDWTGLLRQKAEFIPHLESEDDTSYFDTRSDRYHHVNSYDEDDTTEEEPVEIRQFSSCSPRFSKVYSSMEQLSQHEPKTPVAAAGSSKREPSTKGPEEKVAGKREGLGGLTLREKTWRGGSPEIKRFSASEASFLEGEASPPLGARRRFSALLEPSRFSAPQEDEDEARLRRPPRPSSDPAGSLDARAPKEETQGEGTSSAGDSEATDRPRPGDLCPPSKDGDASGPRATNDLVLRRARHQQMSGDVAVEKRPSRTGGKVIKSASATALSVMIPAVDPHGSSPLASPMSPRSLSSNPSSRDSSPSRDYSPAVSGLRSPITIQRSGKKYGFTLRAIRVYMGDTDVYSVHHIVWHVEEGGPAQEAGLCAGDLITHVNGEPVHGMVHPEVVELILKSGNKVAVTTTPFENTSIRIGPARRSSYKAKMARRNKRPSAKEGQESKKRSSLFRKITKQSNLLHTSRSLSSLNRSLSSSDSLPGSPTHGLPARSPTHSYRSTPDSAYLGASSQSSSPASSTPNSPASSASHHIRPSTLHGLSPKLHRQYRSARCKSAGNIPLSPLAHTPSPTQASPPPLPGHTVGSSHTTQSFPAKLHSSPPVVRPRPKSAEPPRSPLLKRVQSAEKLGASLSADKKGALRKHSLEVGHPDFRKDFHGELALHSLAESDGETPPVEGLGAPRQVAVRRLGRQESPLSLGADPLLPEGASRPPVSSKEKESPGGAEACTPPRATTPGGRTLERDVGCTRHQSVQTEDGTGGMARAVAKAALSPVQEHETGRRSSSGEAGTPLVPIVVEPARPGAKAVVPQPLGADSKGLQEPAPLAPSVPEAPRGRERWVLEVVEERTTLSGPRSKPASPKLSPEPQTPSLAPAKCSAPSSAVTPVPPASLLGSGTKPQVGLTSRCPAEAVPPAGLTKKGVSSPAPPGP
UniProt Q00526, sequence (whole entry, looked up): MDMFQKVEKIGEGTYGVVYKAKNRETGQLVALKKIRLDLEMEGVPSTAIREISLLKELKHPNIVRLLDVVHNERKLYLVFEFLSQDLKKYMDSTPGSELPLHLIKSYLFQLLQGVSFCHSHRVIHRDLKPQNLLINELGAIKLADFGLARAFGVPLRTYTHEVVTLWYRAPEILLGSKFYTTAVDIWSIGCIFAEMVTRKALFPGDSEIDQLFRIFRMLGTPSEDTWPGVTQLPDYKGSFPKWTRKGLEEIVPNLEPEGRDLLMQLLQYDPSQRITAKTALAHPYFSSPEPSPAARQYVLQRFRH
UniProt Q8TD19, sequence (whole entry, looked up): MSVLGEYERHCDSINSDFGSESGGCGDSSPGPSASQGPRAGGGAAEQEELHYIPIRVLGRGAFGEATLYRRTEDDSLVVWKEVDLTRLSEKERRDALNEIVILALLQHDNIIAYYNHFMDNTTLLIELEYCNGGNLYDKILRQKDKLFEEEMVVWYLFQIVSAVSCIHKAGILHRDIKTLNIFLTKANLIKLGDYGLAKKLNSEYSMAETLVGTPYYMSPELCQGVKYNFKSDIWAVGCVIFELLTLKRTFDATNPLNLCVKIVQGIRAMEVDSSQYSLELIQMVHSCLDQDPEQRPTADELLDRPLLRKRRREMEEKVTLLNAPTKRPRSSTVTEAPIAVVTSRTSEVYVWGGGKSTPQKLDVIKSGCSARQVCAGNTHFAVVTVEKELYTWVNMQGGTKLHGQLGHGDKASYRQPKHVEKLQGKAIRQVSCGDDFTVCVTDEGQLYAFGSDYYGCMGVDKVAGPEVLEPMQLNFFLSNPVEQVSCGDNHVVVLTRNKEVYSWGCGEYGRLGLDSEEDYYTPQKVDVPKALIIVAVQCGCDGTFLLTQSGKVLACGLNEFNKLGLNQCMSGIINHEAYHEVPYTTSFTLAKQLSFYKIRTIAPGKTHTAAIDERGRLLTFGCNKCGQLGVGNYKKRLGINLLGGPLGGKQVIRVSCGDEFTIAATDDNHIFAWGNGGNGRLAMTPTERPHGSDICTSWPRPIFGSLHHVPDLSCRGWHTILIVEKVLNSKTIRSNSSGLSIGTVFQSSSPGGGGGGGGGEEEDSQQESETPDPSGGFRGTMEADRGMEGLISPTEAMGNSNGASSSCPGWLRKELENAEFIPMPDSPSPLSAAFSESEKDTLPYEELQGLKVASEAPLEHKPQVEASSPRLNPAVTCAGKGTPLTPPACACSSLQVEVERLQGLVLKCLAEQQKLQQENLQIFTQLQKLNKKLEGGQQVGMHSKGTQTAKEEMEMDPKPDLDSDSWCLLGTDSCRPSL
UniProt P51617, sequence (whole entry, looked up): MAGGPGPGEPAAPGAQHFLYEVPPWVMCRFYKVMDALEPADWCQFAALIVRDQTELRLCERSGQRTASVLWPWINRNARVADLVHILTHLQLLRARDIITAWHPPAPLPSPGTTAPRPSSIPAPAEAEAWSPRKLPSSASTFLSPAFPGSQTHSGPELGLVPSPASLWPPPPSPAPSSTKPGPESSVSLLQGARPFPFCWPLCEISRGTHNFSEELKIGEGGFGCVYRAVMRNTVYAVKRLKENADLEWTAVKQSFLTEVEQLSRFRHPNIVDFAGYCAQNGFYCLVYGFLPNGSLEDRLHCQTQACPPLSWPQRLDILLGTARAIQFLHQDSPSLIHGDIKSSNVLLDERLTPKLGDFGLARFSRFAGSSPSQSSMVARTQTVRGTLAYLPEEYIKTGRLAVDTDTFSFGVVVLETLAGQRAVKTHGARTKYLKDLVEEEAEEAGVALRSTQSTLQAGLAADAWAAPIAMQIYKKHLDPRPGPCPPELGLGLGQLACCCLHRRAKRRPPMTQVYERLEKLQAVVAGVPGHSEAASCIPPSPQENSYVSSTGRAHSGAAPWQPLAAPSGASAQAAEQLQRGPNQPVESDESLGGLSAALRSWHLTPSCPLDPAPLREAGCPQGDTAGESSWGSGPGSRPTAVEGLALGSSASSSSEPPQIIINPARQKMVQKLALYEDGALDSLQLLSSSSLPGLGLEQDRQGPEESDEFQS

Block 1
Compound: Nc1nc(Nc2ccc(S(N)(=O)=O)cc2)nn1C(=O)c1c(F)cccc1F
Read-out: enzyme activity
Action: inhibitor
Tested at: 0.5 µM
Baseline: control
Endpoint: remaining activity
HIPK2 (Homo sapiens, UniProt Q9H2X6): 72.8%
EPHB4 (Homo sapiens, UniProt P54760): 81%
STK17A (Homo sapiens, UniProt Q9UEE5): 83.9%
SRMS (Homo sapiens, UniProt Q9H3Y6): 96.5%
CAMK2B (Homo sapiens, UniProt Q13554): 99.7%
Cyclin-dependent kinase 6, with cyclin D3 (CDK6, Homo sapiens, UniProt Q00534): 36.2%
DYRK3 (Homo sapiens, UniProt O43781): 101%

Block 2
Cell line: A-375
Tested at: 100 µM
Time: 18 h
Endpoint: viability
O=C(O)c1cc(=O)c2c(OCC(O)COc3cccc4oc(C(=O)O)cc(=O)c34)cccc2o1: 90%
C[C@H]1O[C@H](O[C@H]2[C@H](O)[C@@H](O)[C@@H](O[C@H]3[C@H](O)[C@@H](O)C(O)O[C@@H]3CO)O[C@@H]2CO)[C@H](O)[C@@H](O)[C@@H]1N[C@H]1C=C(CO)[C@@H](O)[C@H](O)[C@H]1O (stereo partly shown): 98.5%
O=C1CN(/N=C/c2ccc(-c3ccc([N+](=O)[O-])cc3)o2)C(O)=N1: 86.2%
O=P(O)(O)C(O)(Cn1ccnc1)P(=O)(O)O: 99.7%
N#Cc1ccc2[nH]cc(CCCCN3CCN(c4ccc5oc(C(N)=O)cc5c4)CC3)c2c1: 11.6%

Block 3
SMILES: Cc1noc([C@H]2C[C@@H](c3ccc(C(F)(F)F)cc3)CN(C(=O)N3CCS(=O)(=O)C3)C2)n1
Read-out: cell-free assay
Method: competition with immobilised ligand
Tested at: 1 µM
Endpoint: remaining binding
NEK1 (Homo sapiens, UniProt Q96PY6): 100%
RET (Homo sapiens, UniProt P07949): 100%
Ribosomal protein S6 kinase alpha-5, N-terminal kinase domain (RPS6KA5, Homo sapiens, UniProt O75582): 85%
CLK3 (Homo sapiens, UniProt P49761): 100%
Tyrosine-protein kinase JAK2, JH1 (JAK2, Homo sapiens, UniProt O60674): 100%
MAPK12 (Homo sapiens, UniProt P53778): 100%
EPHA6 (Homo sapiens, UniProt Q9UF33): 100%
CDK3 (Homo sapiens, UniProt Q00526): 100%
COQ8B (Homo sapiens, UniProt Q96D53): 100%
NEK9 (Homo sapiens, UniProt Q8TD19): 100%
IRAK1 (Homo sapiens, UniProt P51617): 100%
MAST1 (Homo sapiens, UniProt Q9Y2H9): 100%
TGFBR2 (Homo sapiens, UniProt P37173): 100%
WNK2 (Homo sapiens, UniProt Q9Y3S1): 100%

Other studies, line by line
CN1CC[C@H](c2c(O)cc(O)c3c(=O)cc(-c4ccccc4Cl)oc23)[C@H](O)C1 — viability (HuT78; trypan blue exclusion; 0.0001 µM, 48 h; baseline: untreated): 97.2% and 95.8%
C[C@@H]1CN(c2ccc(-c3cc(C(=O)NCCOCCOCCOCCOCCNC(=O)Cn4cc(-c5[nH]cc(C(=O)N[C@@H](CC(N)=O)c6ccc(F)c(Cl)c6)c5-c5ccc(Cl)cc5F)cn4)ccc3F)cc2NC(=O)c2c[nH]c(=O)cc2C(F)(F)F)C[C@H](C)N1C — Kd (DCAF1 (Homo sapiens, UniProt Q9Y4B6); SPR): 0.0479 µM
